{"data": "Assay results pooled from the literature", "target": "Serine/threonine-protein kinase SIK2 (SIK2, Homo sapiens, UniProt Q9H0K1)", "note": "Compare with care: the assays were run in different laboratories."}
{"SMILES": "NC(=O)C[C@H]1CCc2sc3ncnc(O[C@H]4CC[C@H](N5CCOCC5)CC4)c3c21", "assay": "enzyme activity, inhibitor", "conditions": "10 µM", "quantity": "inhibition", "result": "9%"}
{"SMILES": "C=CC(=O)Nc1cccc(-c2cnc3[nH]cc(C(=O)NC(C)(C)C)c3n2)c1", "assay": "enzyme activity, inhibitor", "conditions": "0.1 µM", "quantity": "inhibition", "result": "16%"}
{"SMILES": "CNC(=O)C[C@H](Cc1ccc(C#N)cc1)NC(=O)c1cc(-c2ccc(CN[C@H](C)c3ccc(C)cc3)o2)ccc1Cl", "assay": "enzyme activity, inhibitor", "conditions": "1 µM", "quantity": "activity vs control", "result": "93%"}
{"SMILES": "Nc1ncc2c(n1)-c1c([nH]c3ccc(C4=CCOCC4)cc13)CCC2", "assay": "binding, competition with immobilised ligand", "conditions": "1 µM", "quantity": "remaining binding", "result": "98%"}
{"SMILES": "COc1ccc(O)cc1-c1c[nH]c2ncc(-c3cncc(C(=O)N(C)C)c3)cc12", "assay": "binding, competition with immobilised ligand", "conditions": "0.2 µM", "quantity": "inhibition", "result": "32.4%"}
{"SMILES": "COc1cc(Nc2nccc(-c3cnn4nc(OC)ccc34)n2)cc(C(F)(F)F)c1", "assay": "binding, competition with immobilised ligand", "conditions": "1 µM", "quantity": "remaining binding", "result": "100%"}
{"SMILES": "C=CC(=O)N1Cc2nc(-c3cc(-c4cc(Cl)cnc4Cl)c(F)cc3F)n(-c3ccncn3)c2C1", "assay": "cell-free assay, inhibitor", "conditions": "1 µM", "quantity": "inhibition", "result": "5.6%"}
{"SMILES": "CN1CC[C@@H](COc2cnc(C#N)cc2-c2ccn3nc(NC(=O)C4CC4)cc3c2)C1", "assay": "enzyme activity, inhibitor", "conditions": "1 µM", "quantity": "inhibition", "result": "101%"}
{"SMILES": "Cc1cccc(O[C@H]2CCC[C@@H](C(C)CNCc3ccncc3)C2)c1 (relative stereo)", "assay": "enzyme activity, inhibitor", "conditions": "10 µM", "quantity": "inhibition", "result": "-3%"}
{"SMILES": "CC(C)=CC1OC(C)(C)C2C=C3C(=O)C(Cl)=CC(O)C3C3C(O)C4OC4C(=O)C132 (stereo not drawn)", "assay": "cell-free assay, competition with immobilised ligand", "conditions": "10 µM", "quantity": "remaining binding", "result": "98%"}
{"SMILES": "COc1c(Cl)cccc1Nc1c(-c2ccncc2C#C[C@@]2(C)CCCN2C(=O)/C=C/CN(C)C)[nH]c2c1C(=O)NCC2", "assay": "binding, competition with immobilised ligand", "conditions": "3 µM", "quantity": "remaining binding", "result": "100%"}
{"SMILES": "Cc1ccc(C(=O)Nc2ccc(CN3CCN(C)CC3)c(C(F)(F)F)c2)cc1C#Cc1cnc2cccnn12", "assay": "target engagement, NanoBRET", "system": "human cells", "quantity": "upper asymptote", "result": 13000}
{"SMILES": "CNC(=O)C1CCN(c2cc(C)c(F)cc2NC(=O)c2ccc(-c3cc(O)ccc3C)c(C)c2)CC1", "assay": "binding, competition with immobilised ligand", "conditions": "1 µM", "quantity": "remaining binding", "result": "95%"}
{"SMILES": "Cc1ccc(-c2c(/C=C(\\C#N)C(=O)NC(C)C)n(CCCO)c3ncnc(N)c23)cc1", "assay": "cell-free assay, competition with immobilised ligand", "conditions": "1 µM", "quantity": "remaining binding", "result": "52%"}
{"SMILES": "CNC1C[S+]2CC[S+]3CC[S+](C1)[Ru-4]321([N]=C=S)[n]2c3ccc(OC)cc3c3c4c(c5cc(F)c[n+]1c5c32)C(=O)NC4=O (stereo not drawn)", "assay": "KinomeScan", "conditions": "0.1 µM", "how to read": "relative to: untreated", "quantity": "remaining binding", "result": "100%"}
